# Published values from different studies.
# Each numbered part is a random draw from the data of one study; scales do not carry over between parts. Positions count from the first letter of the parent shown.

# Block 1
# Target: Histone acetyltransferase KAT6A, winged helix 1, GST fusion (KAT6A, Homo sapiens, UniProt Q92794, residues 1-85)
# Technique: protein binding microarray
# Molecule type: double-stranded DNA, one strand shown
# Medium: in vitro
# Concentration: not given
# Setting: 8-mer, flanks averaged, mean of 2 arrays, mostly near background
# Relative to: not given
# Direction: higher = stronger binding
# Residues (chain): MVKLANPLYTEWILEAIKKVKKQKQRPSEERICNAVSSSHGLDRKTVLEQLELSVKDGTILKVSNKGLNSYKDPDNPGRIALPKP
Oligonucleotide,E-score
AGTGACAT,-0.137
AGGTTTAA,-0.14
AGTTGCTA,-0.0664
GGACCGTA,0.236
AGTCCGAA,0.0207
CGTCGAAC,-0.0426
CCAGTGAG,-0.197
GCCACCAA,0.0102
GTTTACTA,-0.0151
CCGACATA,0.152
CATATGGA,-0.105
AACAGATA,-0.215
ACGAAAAA,-0.234
CACCCCCC,0.0349
GCATCTCA,-0.0649
GGAGAAAA,-0.0543
GGCCACAC,0.00159
AAAGTTCA,-0.208
ATGAGTCC,0.0849
CATTACGG,0.248
AGTCTTTG,-0.304
CCGTATTC,0.195
ACAGGTCA,-0.119
CAACCCGC,0.372
ACAAAATA,-0.258

# Block 2
# Target: PABPC1L2, full length, GST fusion (mouse, UniProt A0ABA7IW68)
# Technique: RNAcompete
# Molecule type: RNA
# Medium: in vitro
# Concentration: 20 nM
# Setting: 7-mer, probes averaged, single round
# Relative to: mean of 7-mers
# Direction: higher = stronger binding
# Target sequence (chain): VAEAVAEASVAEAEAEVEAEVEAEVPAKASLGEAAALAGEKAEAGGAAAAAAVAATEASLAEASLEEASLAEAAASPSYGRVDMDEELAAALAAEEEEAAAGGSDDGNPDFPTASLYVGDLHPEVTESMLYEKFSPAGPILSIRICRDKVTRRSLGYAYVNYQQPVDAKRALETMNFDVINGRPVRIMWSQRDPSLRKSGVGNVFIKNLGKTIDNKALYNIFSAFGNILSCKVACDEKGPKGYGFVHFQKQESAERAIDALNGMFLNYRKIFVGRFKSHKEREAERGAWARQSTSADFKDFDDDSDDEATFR
Oligonucleotide,7-mer Z-score
UCUCCCC,-0.452
GGUUGGU,-0.115
UAUAGAG,-0.159
AGGCCUC,-0.242
CCACUCG,-0.266
UCAGCAG,-0.0573
GGGGCGC,0.213
CAGGUGG,0.106
ACUCGAC,-0.0899
GGUCCUU,-0.186
AAUACGU,-0.0373
UGUUAUG,-0.4
UUUAAUC,-0.0264
UUAUCGG,0.155
AUGUGAC,-0.00833
UGGCUUU,-0.126
GGAAUGG,0.135
CAACGUG,-0.0409
AGAGAUU,-0.113
CCGGGGU,-0.0428
CCUGCUG,-0.269
CGGUAGC,-0.0319
UUUUGCA,-0.211
GAAUAUC,-0.231
UCAUUUC,-0.438

# Block 3
# Target: Sal-like protein 4, full length isoform A (SALL4, Homo sapiens, UniProt Q9UJQ4, residues 1-1053)
# Sequence of UniProt Q9UJQ4 (whole entry, looked up): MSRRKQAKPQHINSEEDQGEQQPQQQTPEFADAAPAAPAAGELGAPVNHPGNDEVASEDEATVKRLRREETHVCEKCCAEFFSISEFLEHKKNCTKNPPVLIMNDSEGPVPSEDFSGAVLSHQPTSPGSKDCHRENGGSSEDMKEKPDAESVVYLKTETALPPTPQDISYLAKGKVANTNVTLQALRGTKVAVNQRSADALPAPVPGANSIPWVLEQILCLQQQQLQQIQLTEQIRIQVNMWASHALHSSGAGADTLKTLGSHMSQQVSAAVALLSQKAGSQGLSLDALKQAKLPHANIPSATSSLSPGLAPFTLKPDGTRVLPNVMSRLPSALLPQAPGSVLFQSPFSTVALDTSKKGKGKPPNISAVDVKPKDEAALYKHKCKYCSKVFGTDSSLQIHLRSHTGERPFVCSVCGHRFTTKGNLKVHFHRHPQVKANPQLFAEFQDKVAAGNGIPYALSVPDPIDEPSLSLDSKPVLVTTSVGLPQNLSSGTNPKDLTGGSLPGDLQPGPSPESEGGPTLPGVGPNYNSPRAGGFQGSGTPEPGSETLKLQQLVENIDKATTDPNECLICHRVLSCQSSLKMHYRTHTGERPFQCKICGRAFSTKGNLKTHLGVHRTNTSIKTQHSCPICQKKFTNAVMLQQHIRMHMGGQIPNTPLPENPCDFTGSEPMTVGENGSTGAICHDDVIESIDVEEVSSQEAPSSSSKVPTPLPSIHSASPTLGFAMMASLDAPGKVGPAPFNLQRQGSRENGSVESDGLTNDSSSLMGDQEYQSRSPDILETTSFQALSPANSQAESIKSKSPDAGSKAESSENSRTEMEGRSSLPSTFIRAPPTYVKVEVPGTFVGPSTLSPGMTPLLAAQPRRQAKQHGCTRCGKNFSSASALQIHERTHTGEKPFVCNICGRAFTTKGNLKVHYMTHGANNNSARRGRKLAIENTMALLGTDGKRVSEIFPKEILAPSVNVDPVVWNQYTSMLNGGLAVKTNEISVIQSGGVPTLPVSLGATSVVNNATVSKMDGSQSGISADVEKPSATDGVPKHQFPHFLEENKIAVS
# Technique: universal PBM
# Molecule type: double-stranded DNA, one strand shown
# Medium: in vitro
# Concentration: 600 nM
# Setting: 8-mer, flanks averaged, mean of replicates
# Direction: higher = stronger binding
Oligonucleotide,E-score
GAAGCGAC,-0.178
GGCTTCAA,-0.0203
AGCCGAAT,-0.0488
CCCTGGAA,-0.241
AGTGACTC,-0.0768
ATTAGCAA,0.295
TCGCCCAA,-0.0793
AATCCTCA,0.114
CTAGAAGA,0.0891
ATTGAGCG,-0.033
ACCTCCTA,-0.0281
ACCTGACA,-0.0641
GTCATCTA,0.081
CTGTAAAG,0.0645
GCAGACGA,-0.0243
CGTTATCC,0.0474
ACGTCGTC,-0.0845
CCTCGACC,-0.154
ACAAAAAA,0.318
CCTCATCC,-0.117
CGCGTTCC,-0.31
CCGTTCCG,-0.177
AGTCGAGG,-0.219
GACGAATA,0.188
ACACTGGT,-0.0105

# Block 4
# Target: RNA binding protein fox-1 homolog 2, RRM domain, GST-SBP tag (RBFOX2, Homo sapiens, UniProt O43251-10, residues 100-194)
# Technique: RNA Bind-n-Seq
# Molecule type: RNA
# Medium: in vitro
# Concentration: 365 nM
# Setting: natural RNA segment, single round, ends assumed
# Relative to: no-protein control
# Direction: higher = stronger binding
# Shared flanks, not repeated: GGGAGUUCUACAGUCCGACGAUC … UGGAAUUCUCGGGUGCCAA
# Target sequence (chain): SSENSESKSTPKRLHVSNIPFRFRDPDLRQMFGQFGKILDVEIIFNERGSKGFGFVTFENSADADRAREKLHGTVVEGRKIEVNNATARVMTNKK
Oligonucleotide,RBNS enrichment (R)
GCACUGUGAAGAAUGAGAAGGGAAAAGCAAAAAUUAUCCUUGUGAAAUAUCUGCUGAUUGUGCCCUACUCUUUGCACCUGACUUUUCCUAGUUGUCCUGGUGCUAACACA,0.325
GGCUAAACUGUGGGUGGCAGUGGGCAUCCCCAUCACCCUUAGCAAGGUGUGGUUCUCAGUGCCUGUCAUUGAUGUGUGUUCCCGUGCCCAGGCUGUCUCAGUGUCAUCAU,0.235
GCUGGGUUCUGUGAAGUUACGUAUUUAUUGAGCUUUUGGUUCUUUUAUAAAGACUUGUCUAGACUCCCUGGGAAGAGUCCUUUGCUUUGGGGCCCAGUGACUCGGGGCAC,0.408
CUAUUUAUCUUCAGGGUCACUCUGGGCAAAGAGAAGGUCCUCAGCCAUGCCCCCAGCACCUUGCACAUAGGUGUCUGAUAAAAGUUUAAGAAAGUAAACACUUUUUGAGC,0.249
AACCCCACUCAGAAACAGAGAAAACUGGGGUCGCGAAGAAAUCACAGCCAAGGAAGAUUUGAUGCAUUCAGAUUCUCGUGUAACACUUGUUGCUUGGCAACAGUACUGGU,0.244
CACAGCUUCCUGUCCUUUGCCCUUGACUGUACUGAGUAUGUGGGUGGUUGACCCAUAUAGGCCAUGCCUCUAGCCAUCUGUGGAACCCUGUGGGUGUCAAGUAGAACCCA,0.48
CAAUUUGAACUCAGGUUGUUUAUGAGGGGAAAAAAACAGUUGCAUAGAGUAUAGCUCUGUAGUGGAAUAUGUCUUCUGUAUAACUAGGCUGUUAACCUAUGAUUGUAAAG,0.555
AGCUUAGCAUUUUCAGUACUCACUGCUGAUCCUUGGUAGAAGUGCAGACUAGAAUAGAGCUAAAAAUCACGUAUCAACACAGAAUAGCACAUGGUAUUUUGAGUCUUUUU,0.839
CAACCUCUCUCUCUCUCUCUCACUGGGUGGAUAAAUUUGUGAGCCAACCAAGAAGGCUCAGCUGUCAUCACUUCAGAGAGGAAGGAAGAAUCUUCACUUAGCCUCAGACU,0.386
CCUGACAUUGUAUGCCACAAGAGCUCUUGUGAUGAUGGAAUUUUGAUUAAAGUGCACCGGAAGACGCUUUGAGCUUCUUGUUCUCUCCCCUCCCCCCAUCUCUCUCGGUC,0.796
GACUCUUCUAUGCUCCUGUUGGUUUACAAGCCACCAAGAAUGUCAGUGUUGAGAAUACGGCCUGGUAAAAUGGGAGAUGUAAAAUGACUAAAUGAAAGGAAGGGUAGUUU,0.49
CCUCUGAACACUCUGGUUUCCCCACCCAACUGCGGCUAAGUCUCUUUUUCCCUUGGAUCAGCCAAGCGAAACUUGGAGCUUUGACAAGGAACUUUCCUAAGAAACCGCUG,0.263

# Block 5
# Target: CCNE2, cyclin fold, Cln2 fusion (human)
# Technique: yeast growth competition, sequencing
# Medium: yeast
# Setting: weak parent motif
# Relative to: not given
# Direction: higher = stronger binding
# Parent: PKN2 docking peptide (human); VSAVQKLDFSDTM
Variant,normalised enrichment score
VSEVQKLDFSDTM [A3E],-0.297
VSAVQKLDFSDWM [T12W],0.867
VSAVQKLCFSDTM [D8C],0.6
VMAVQKLDFSDTM [S2M],-0.0165
VGAVQKLDFSDTM [S2G],0.171
VSAVQELDFSDTM [K6E],-0.208
VSAVQKLPFSDTM [D8P],0.429
VSAVQKVDFSDTM [L7V],-0.57
VSAVQALDFSDTM [K6A],0.208
VRAVQKLDFSDTM [S2R],0.411
VSAVQKLDFSDTG [M13G],-0.0305
VSAVQKLDFSDFM [T12F],0.565
VSAVQILDFSDTM [K6I],-0.309
VSAVQKLDFSETM [D11E],-0.61
VSAVQSLDFSDTM [K6S],0.176
VSAVQFLDFSDTM [K6F],-0.151
VSAVQKLDFSWTM [D11W],0.405
VSAVQKLDFLDTM [S10L],-0.139

# Some of these lines once more (block 5):
Variant,normalised enrichment score
VSAVQKLDFSETM [D11E],-0.61
VSAVQKLDFSDTG [M13G],-0.0305
VSAVQKLDFLDTM [S10L],-0.139
VSAVQKLDFSWTM [D11W],0.405
VSAVQFLDFSDTM [K6F],-0.151
VSAVQKVDFSDTM [L7V],-0.57
VRAVQKLDFSDTM [S2R],0.411
VSAVQKLCFSDTM [D8C],0.6
VMAVQKLDFSDTM [S2M],-0.0165
VSAVQALDFSDTM [K6A],0.208
VSEVQKLDFSDTM [A3E],-0.297
VSAVQILDFSDTM [K6I],-0.309
VGAVQKLDFSDTM [S2G],0.171
VSAVQSLDFSDTM [K6S],0.176
VSAVQELDFSDTM [K6E],-0.208
VSAVQKLDFSDFM [T12F],0.565
